Results pooled from the literature.
Every numbered part comes from another study and shows a few of its results, in no order.

Block 1
Target: Prothrombin, mature alpha-thrombin (F2, Homo sapiens, UniProt P00734)
Technique: aptamer microarray, sandwich
Molecule type: DNA with 2'F-ANA
Matrix: in vitro
Tested at: 200 nM
Setting: whole 15-mer aptamer, many near background
Added: Cy3 exosite-II aptamer, 400 nM
Direction: higher = stronger binding
Oligonucleotide | mean fluorescence intensity
GGTTGGTGTGGTTGG (2'F-ANA at 1 2 8 10 11) | 51.3 a.u.
GGTTGGTGTGGTTGG (2'F-ANA at 1 2 3 4 6 7 8 11 12) | 332 a.u.
GGTTGGTGTGGTTGG (2'F-ANA at 1 2 4 5 6 8 10 11) | 50.1 a.u.
GGTTGGTGTGGTTGG (2'F-ANA at 2 3 4 5 6 9 10 12 13) | 52.5 a.u.

Block 2
Target: Sal-like protein 4, full length isoform B (SALL4, Homo sapiens, UniProt Q9UJQ4-2, residues 1-616)
Technique: universal PBM
Molecule type: double-stranded DNA, one strand shown
Matrix: in vitro
Tested at: not given
Setting: 8-mer, flanks averaged, mean of replicates
Direction: higher = stronger binding
Oligonucleotide | E-score
ACTGGGAC | 0.0286
AACGCCGC | -0.354
CAAAACCG | -0.0904

Further values, each from its own experiment
PABPC1L2 full length, GST fusion: PABPC1L2, full length, GST fusion (mouse, UniProt A0ABA7IW68)
Substance | target | test | system | conditions | scale | measurement | result
ACUGCCG | PABPC1L2 full length, GST fusion | RNAcompete | RNA, in vitro | 20 nM, 7-mer, probes averaged, single round | baseline: mean of 7-mers, higher = stronger binding | 7-mer Z-score | -0.0844
PhoQ, residues 284 288 289 292 302 303 SLSVQF | PhoP, residues 12 14 15 18 19 FWNTL (Escherichia coli, UniProt P23836) | Sort-seq, refers to: YFP reporter | E. coli | PhoQ-PhoP variant library, added: 10 µM Mg2+ | baseline: high Mg2+ state, higher = stronger signaling | fold induction | 9.76
UGGCGUU | PABPC1L2 full length, GST fusion | RNAcompete | RNA, in vitro | 20 nM, 7-mer, probes averaged, single round | baseline: mean of 7-mers, higher = stronger binding | 7-mer Z-score | -0.128
